# Experimental data of several laboratories.
# Compare with care: the assays were run in different laboratories. ± gives the spread as reported. No end group written: not given here. *: point of attachment.
# B1: UGT1A9 (Homo sapiens, UniProt O60656); chain GKLLVVPMDGSHWFTMRSVVEKLILRGHEVVVVMPEVSWQLGRSLNCTVKTYSTSYTLEDLDREFKAFAHAQWKAQVRSIYSLLMGSYNDIFDLFFSNCRSLFKDKKLVEYLKESSFDAVFLDPFDNCGLIVAKYFSLPSVVFARGILCHYLEEGAQCPAPLSYVPRILLGFSDAMTFKERVRNHIMHLEEHLLCHRFFKNALEIASEILQTPVTEYDLYSHTSIWLLRTDFVLDYPKPVMPNMIFIGGINCHQGKPLPMEFEAYINASGEHGIVVFSLGSMVSEIPEKKAMAIADALGKIPQTVLWRYTGTRPSNLANNTILVKWLPQNDLLGHPMTRAFITHAGSHGVYESICNGVPMVMMPLFGDQMDNAKRMETKGAGVTLNVLEMTSEDLENALKAVINDKSYKENIMRLSSLHKDRPVEPLDLAVFWVEFVMRHKGAPHLRPAAHDLTWYQYHSLDVIGFLLAVVLTVAFITFKCCAYGYRKCLGKKGRVKKAHKSKTH
# B2: enzyme (Bacillus pumilus, UniProt A8FFI9); chain EARSIAWSVDEFFKNREGTFVIQEVKEKSPWVYNKKRAKERFAPQSTFKVANALIGLQTGAVRDEYDIKYWDGVKREIDNWNRDHTLGSGMRDSVVWYYQAMARDIGEERMNHWVKAIHYGNKDISGGIDQFWLSSTLRISPIEQVRFLKQLYEETLPFDLKNMRTVKRMMVQEEEKHATLYGKTGSGSDIGWYVGFIKHEHKTYILATNIKGTGIEAKDITYRILKKYHLMEASV
Substance,tested on,assay,system,setting,how to read,quantity,value
HscB,HscA wild type Escherichia coli,"ATPase activity, activator",,"50-fold molar excess, pH 7.3, 25 °C, together with: ATP 1 mM",,Vmax,0.288 min⁻¹
CCSSC[C@@H](NC(=O)[C@H](CC(=O)O)NC(=O)[C@@H](NC(=O)[C@H](CCC(=O)O)NC(=O)[C@H](CC(=O)O)NC(C)=O)C(C)C)C(=O)N[C@@H](CCCCNC(=O)CCCCCN1C(=CC=CC=CC2=[N+](CC)c3ccc4c(S(=O)(=O)[O-])cc(S(=O)(=O)O)cc4c3C2(C)C)C(C)(C)c2c1ccc1c(S(=O)(=O)O)cc(S(=O)(=O)O)cc21)C(=O)Nc1ccc2nc(C3=N[C@@H](C(=O)NCCCOc4ccc5nc(C#N)ccc5c4)CS3)sc2c1,"Caspase-3 (CASP3, Homo sapiens, UniProt P42574)","substrate, HPLC",,"concentration not given, pH 7.4, 37 °C",,half-life of macrocyclization,< 1 h
insulin degludec,,,"human end-stage renal disease, serum","subcutaneous, 0.4 U/kg, dosed after hemodialysis",,AUC(13-17 h),0.0104 µM·h
COc1cccc2c1C(=O)c1c(O)c3c(c(O)c1C2=O)C[C@@](O)(C(=O)CO)C[C@@H]3O[C@H]1C[C@H](NC(=O)[C@@H]2CCCN2C(=O)CN)[C@H](O)[C@H](C)O1,,,"mouse, E0771 tumour-bearing, liver","intravenous, 92 µmol/kg PhAc-ALGP-Dox",,AUC,72.2 µM·h
CC(C)[C@H](NC(=O)[C@@H]1CCCN1C(=O)[C@H](CCCNC(=N)N)NC(=O)[C@H](CS)NC(=O)[C@H](Cc1c[nH]c2ccccc12)NC(=O)[C@H](CCCNC(=N)N)NC(=O)[C@@H](Cc1ccccc1)NC(=O)[C@H](Cc1c[nH]cn1)NC(=O)[C@H](CCC(=O)O)NC(=O)[C@H](CS)NC(=O)[C@H](CS)NC(=O)[C@H](CCCCN)NC(=O)[C@@H]1CC(=O)N[C@@H](CCCNC(=N)N)C(=O)N[C@@H](C)C(=O)N[C@@H](CC(=O)O)C(=O)N[C@H](Cc2ccc(O)cc2)C(=O)N1)C(N)=O [technetium-99m labelled],,,"C57 mice, stomach","intravenous, 0.037 MBq, 24 h",,tissue uptake,0.51 ± 0.22 %ID/g
epidermal growth factor,MDCK,transwell transcytosis,,"3 h, 37 °C, basal to apical",reference: bound tracer,tracer transported,~30%
B1 (UGT1A9),COc1cccc(-c2oc3ccccc3c(=O)c2O)c1,steady-state kinetics,,"pH 7.4, 37 °C",,Vmax,0.0029 µmol/min/mg
B2 (enzyme),C[C@@H](O)[C@H]1C(=O)N2C(C(=O)O)=C(S[C@@H]3CN[C@H](C(=O)N(C)C)C3)[C@H](C)[C@H]12,steady-state kinetics,,pH 7,,kcat/Km,3300 ± 400 M⁻¹ s⁻¹
GSS(Octanoyl)FLSPEHQRVQQRKESKKPPAKLQPR (ghrelin; Octanoyl = CCCCCCCC(=O)*; sequence looked up),"Calu-3 monolayer, air-liquid interface",,peptide,"1 mg/mL apical, 3 h, pH 7.4, 37 °C, with or without HTCC",,compound share in apical compartment,100 ± 1.3%
